# Results from different studies.
# Each numbered part is a random draw from the data of one study; scales do not carry over between parts.

# Sample 1
# Target: RNA binding protein fox-1 homolog 2, RRM domain, GST-SBP tag (RBFOX2, Homo sapiens, UniProt O43251-10, residues 100-194)
# Technique: RNA Bind-n-Seq
# Molecule type: RNA
# Medium: in vitro
# Concentration: 365 nM
# Setting: natural RNA segment, single round, ends assumed
# Reference: no-protein control
# Direction: higher = stronger binding
# Target sequence (chain): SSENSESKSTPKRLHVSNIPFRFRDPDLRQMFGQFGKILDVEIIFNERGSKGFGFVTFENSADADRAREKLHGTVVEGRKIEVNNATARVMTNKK
Sequence,RBNS enrichment (R)
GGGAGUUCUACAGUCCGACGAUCAUGGACCAGUUUCAGGGUGCGGGAGGUGCUGAACCUUUUCUGGCCACAAACCAUUAUAAAACCCAACAUAUAUACUGAAAAUACUGAGAACUGCUUUGAAAAUUUGGAAUUGGAAUUCUCGGGUGCCAA,0.526
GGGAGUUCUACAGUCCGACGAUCUGGAGGUUGCCCUGCAUCCCCCCUCCUCUGCCUGAGUGUGUCUUUGUAAUGUCAGCUGGCAUCAUACAAAGAGCAGGAGAAGCAAACACCCAGAACUCUUUUGCUGGUCAUGGAAUUCUCGGGUGCCAA,0.843
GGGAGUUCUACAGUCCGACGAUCGCAACAGUGCUCAAAUGUAUGAGUUUGGAGAAGUUAACAAUCAGAAGAACAAAAACUGUAGUGUUUCACCUUUAAAUGCAGUGUUGAAGAGGGAGCCUUUCUCUAAGCCCUGGAAUUCUCGGGUGCCAA,0.552
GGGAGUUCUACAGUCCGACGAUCAUGCUUUGUGGGAGUCUGGGUCGGCACACUGUCAGUACAUCAGGCACAUGGGCCCACUAGGCUGGGGUUUCUGGUUUUGUUUCUGUUGUGUUUUGUUUUGGUUUCUGUAUUGGAAUUCUCGGGUGCCAA,1.43
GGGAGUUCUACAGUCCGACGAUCGGGAUGAGGUUUGUACUUUCCUGAACUUGAAUUUCAAACACUAACUGUAUCCUAUGAGUGACGUGUGUGUUGGGGGAGGGUGGGCCUGCCUGGUGUUACACAGAGCAUGGUGGAAUUCUCGGGUGCCAA,3.87
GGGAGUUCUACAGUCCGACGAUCAGUUCGUUGUCGCCAUGCGGCUUUUGCUCAGUCUAGUAUUCUGCCUUGUUUUUCACAUUGGGAACCCUAACAUUACCAGGGAUGCUACUUACCACAAUUUGUAACCCUGAUGGAAUUCUCGGGUGCCAA,0.555
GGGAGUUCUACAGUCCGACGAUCUGAUUCAGAGUUAAAAAGAAGACUAACUUUUCAAGCAAAUGCAUCUGUAAAGAUGCUUUAGAUUAGACUGUCAUGUCUCAGUGUCUAUCUGUAUAUAUUAUUUGAUAUUCUGGAAUUCUCGGGUGCCAA,0.301
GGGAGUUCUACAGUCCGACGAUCGAAUGUUGGUUCCUUGUUCCAGGAAUUCAACAUUAAUUUCCAAAAGUAUCAUGGGACUUGUGACAAUACAAGACAUGAAUCUAUGUAUAAAAUUUAUCGGCCUUUCUCAUUGGAAUUCUCGGGUGCCAA,0.26
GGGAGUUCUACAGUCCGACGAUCCUGGAGCCAUGCCGACCUCUACAAACCUUGAACAGGUGCACAGCCCCCUCUCCGGAGCGCUUUGUAAUGCCUUAUUCACGUCGAAAACCAGGAGACUCGGGCUUCGUUUCUGGAAUUCUCGGGUGCCAA,0.335

# Sample 2
# Target: Interferon regulatory factor 5, full length, phosphomimetic (IRF5, Homo sapiens, UniProt Q13568-2, residues 1-514, S451D/S453D/S456D/S462D)
# Technique: protein-binding microarray
# Molecule type: double-stranded DNA, one strand shown
# Medium: in vitro
# Concentration: 940 nM top
# Setting: 60-bp whole probe
# Added: salmon DNA 0.4 mg/ml
# Reference: random background probes
# Direction: higher = stronger binding
# All sequences stand within: GCCTAGCAC … GTCTTGATTCGCTTGACGCTGCTG
Sequence,fitted relative affinity
GACGATATCCTTTTCCTGACGTGCTAG,0.369 z-score
GACGGTTCTGGTTTCGGGACGTGCTAG,4.33 z-score
GAAGAAATTTAATAGTCACTGTGCTAG,-0.304 z-score
TCATCTTCACATATAATACTGTGCTAG,1.18 z-score
TCAGATATAAATGTAACACTGTGCTAG,0.0868 z-score
GACGGTCTCCTACTGCTGATGTGCTAG,0.25 z-score
GACGATATCCTTATCCTGACGTGCTAG,-0.175 z-score
TCAGCTTGGTGTCTCTGACTGTGCTAG,-0.293 z-score
GACGATATCAGACTGGTGACGTGCTAG,-0.448 z-score
GGCGGTTCCCTTTTCCTGACGTGCTAG,0.782 z-score
TTAGATTTCAGCCTCGATTAGTGCTAG,0.038 z-score
GTTTTTTTCTACTTCTCTTTGTGCTAG,2.13 z-score
CACTATTTAAGAACTATGCACGTGCTA,0.191 z-score
TTAGCTTTCAGTTCCGATTAGTGCTAG,2.55 z-score
TTAGGTATCGGGACTGGCTTAGTGCTA,3.69 z-score
TCATTTTTGCTTTCCTTACTGTGCTAG,2.09 z-score
TTAGGTCTCCGTATCCTTTAGTGCTAG,0.312 z-score

# Sample 3
# Target: RING finger protein unkempt homolog, zinc fingers 1-6, GST-SBP tag (UNK, Homo sapiens, UniProt Q9C0B0, residues 30-357)
# Technique: RNA Bind-n-Seq
# Molecule type: RNA
# Medium: in vitro
# Concentration: not given
# Setting: RNA with constant flanks, human and mouse sites, ends assumed
# Reference: input RNA pool
# Direction: higher = stronger binding
# Residues (chain): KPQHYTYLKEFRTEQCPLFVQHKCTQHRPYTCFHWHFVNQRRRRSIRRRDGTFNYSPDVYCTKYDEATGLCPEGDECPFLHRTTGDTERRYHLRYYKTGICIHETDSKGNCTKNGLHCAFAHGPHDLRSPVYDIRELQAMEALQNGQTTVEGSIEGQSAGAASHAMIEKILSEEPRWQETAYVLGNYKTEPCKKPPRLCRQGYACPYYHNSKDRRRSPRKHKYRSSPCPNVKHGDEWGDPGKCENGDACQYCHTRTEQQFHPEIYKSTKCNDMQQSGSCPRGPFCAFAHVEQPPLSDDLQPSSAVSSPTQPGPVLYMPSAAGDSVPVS
Sequence,bound/input enrichment [ratio]
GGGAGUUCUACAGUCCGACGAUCAUGGAGGUUAAAGUGAAGAUUCCUGAAGAAUUAAAACCAUGGCUUGUUGAGGACUGGGACUUAGUUACCAGGCAGAAGCAGCUGUUUCAACUCCCUGCCAAGAAAAAUGUAGAUGCAAUUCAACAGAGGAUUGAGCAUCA,0.666
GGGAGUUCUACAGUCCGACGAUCCCAGUUUGUAUGUACAUUAUUCAUAUUCCUCUCUGUUGUGUUUCGGGGGGAAAAGACAUUUUAGCCUUUUUUAAAAGUUACUGAUUUAAUUUCAUGUUAUUUGGUUGCAUGAAGUUGCCCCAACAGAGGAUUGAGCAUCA,6.13
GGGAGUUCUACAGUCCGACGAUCCCUACAAAUCUCCUUAAUUAUAACAUUCACAGCCACAGAACUAAUCAUAUUUUAUAUCUUCUUCGAAACCACACUUAUCCCCACCUUGGCUAUCAUCACCCGAUGAGGCAACCAGCCAGACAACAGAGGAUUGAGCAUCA,2.25
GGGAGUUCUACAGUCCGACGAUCGGAAGAGUUGGGCUGUGGAAGGACAUCUUCACCGUCUCCAUGAAUGAGAAGUUUGACUUGGUGUAUAAACAGAAGAUGGGAAAGUGUGACCUCACGUUUGACUUUUAUUUAUAAUAACAGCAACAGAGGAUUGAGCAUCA,0.0959
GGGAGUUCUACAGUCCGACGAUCACCCUCAUCAACAUCCCGUCAUUAAAUGACAGUGACUCAGAAAUAGAAGAUAUUUCAGAAAUAGAGUCAAACCGAUCAUUUUCUCCAGAGGAGAGACGUCAUCAGUAUUCUGAUUAUGAUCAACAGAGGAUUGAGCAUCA,0.124
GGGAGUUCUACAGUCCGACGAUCAGCACAACCCCAGCAAAGCUAAGAAAUCCUUGUACAAGUGAACAAAACUGCACCAGCCCAUUUAGCUACAAAAAUGUGCUUAGUCUUACUGACAGAGGAGAGUUUUUCAAUGAACUUGUUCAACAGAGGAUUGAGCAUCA,0.576
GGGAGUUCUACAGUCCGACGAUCACAACUCUGGAUAGAGCUGCGUGUUUGCCACCUGGAGACCAUAAUGCAUUAUAUGUAAAUAGCUUCCCACUUCUGGACCCAUCUGAUGCACCUUUUCCCUCACUCGAUUCCCCGGGAAAACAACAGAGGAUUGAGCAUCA,0.18
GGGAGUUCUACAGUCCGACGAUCCUGUGUGUAAAAUAUUUAACCAUAAGUCAAGUACAGUGUACUAUGUUUAAUAAAGUUACAUUUAAUGCAUUUAUUGCAUAUAUGAAUAUAUACAUGAAGAGGCUUUAUGUCUUCUGGUAUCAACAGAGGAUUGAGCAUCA,0.202

# Sample 4
# Target: Ras GTPase-activating protein-binding protein 1, RRM domain (G3BP1, Homo sapiens, UniProt Q13283)
# Chain of UniProt Q13283 (whole entry, looked up): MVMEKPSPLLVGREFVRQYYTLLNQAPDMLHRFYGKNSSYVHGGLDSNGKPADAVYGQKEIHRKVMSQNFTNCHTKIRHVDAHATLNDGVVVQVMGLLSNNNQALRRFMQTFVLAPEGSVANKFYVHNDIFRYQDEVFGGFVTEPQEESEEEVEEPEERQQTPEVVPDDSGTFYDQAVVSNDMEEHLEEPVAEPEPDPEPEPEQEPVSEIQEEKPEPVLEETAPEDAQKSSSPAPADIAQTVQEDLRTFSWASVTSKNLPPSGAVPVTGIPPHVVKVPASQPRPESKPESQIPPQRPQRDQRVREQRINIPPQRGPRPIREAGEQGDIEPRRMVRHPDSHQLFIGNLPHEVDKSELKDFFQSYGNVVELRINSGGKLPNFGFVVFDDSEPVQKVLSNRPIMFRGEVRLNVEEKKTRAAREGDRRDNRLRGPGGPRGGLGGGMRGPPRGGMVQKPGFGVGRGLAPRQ
# Technique: RNA Bind-n-Seq
# Molecule type: RNA
# Medium: in vitro
# Concentration: 1 µM
# Setting: whole 134-nt RNA, ends assumed
# Added: 150 mM KCl
# Reference: input library
# Direction: higher = stronger binding
Sequence,log2 enrichment
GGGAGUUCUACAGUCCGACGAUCCAAGUCCUGUGCUACACAUCGUAUGUACCGAAUCGGUUUUUUUGGAGGUUUUUGGAAAGUAUUAUGUUACGCCGUUCGGAUCUGCACUUCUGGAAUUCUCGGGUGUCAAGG,-0.285
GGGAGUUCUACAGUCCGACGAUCUUAGAAGAAGUGGAAAGGAAAAAACGCCAAAGGGAGUUGGAAAUUGAAGAACGAGAACGGCGUAGAGAGGAAGAGAGAAGACUUGGCGAUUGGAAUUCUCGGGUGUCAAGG,0.2
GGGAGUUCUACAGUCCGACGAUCCUCAAGUCCUGUGCUACACAUCGUAUGUACCGAAUCGGAGGUUUUUGGAAAGGAAAGUAUUAUGUUACGCCGUUCGGAUCUGCACUUCCAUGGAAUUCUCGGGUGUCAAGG,-0.241
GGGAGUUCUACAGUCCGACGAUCAGUCCUGUGCUACACAUCGUAUGUACCGAAUCGGGGCCCGGGGCCCGGGGCCCGGGGAAAGUAUUAUGUUACGCCGUUCGGAUCUGCACUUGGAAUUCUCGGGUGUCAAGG,-1.6
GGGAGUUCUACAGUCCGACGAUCAGUCCUGUGCUACACAUCGUAUGUACCGAAUCGGGGUUUGGGGUUUGGGGAAAGGGGAAAGUAUUAUGUUACGCCGUUCGGAUCUGCACUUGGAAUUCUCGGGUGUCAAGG,1.73
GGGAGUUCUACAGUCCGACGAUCUGGGAGGUGGAUUUUGUUUAUUUUUUUAGCUCAUUUCCAGGGGUGGGAAUUUUUUUUUAAUAUGUGUCAUGAAUAAAGUUGUUCUUGAAAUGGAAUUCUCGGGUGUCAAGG,2.25
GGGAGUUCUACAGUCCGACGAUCGCAGGAAGUAAAAACAAAUGGAAAUGCUUCGGAUAGUGGCAGGGGUGGGGGUUGCUAAGGAAAGGGUGGGAUGGGAGUGGGUAAAGAAAUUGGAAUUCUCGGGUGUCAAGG,1.28
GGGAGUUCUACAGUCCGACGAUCGUCCUGUGCUACACAUCGUAUGUACCGAAUCAAAUUUUUUUAAACCCCCAAAUUUAAAAAAGUAUUAUGUUACGCCGUUCGGAUCUGCACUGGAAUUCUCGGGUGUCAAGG,-0.86
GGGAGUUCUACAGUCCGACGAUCUGGCCCUGGUGGCAUGCGGGGAGGAAGAGGUGGCCUCAUGGAUCGUGGCGGUCCCGGUGGAAUGUUCAGAGGUGGCCGUGGUGGAGACAGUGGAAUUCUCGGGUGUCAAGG,-0.0492
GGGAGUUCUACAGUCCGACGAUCCUGUGCUACACAUCGUAUGUACCGAAUCGGUUUUUUUGGUUUUUUUGGGGUUUUUUUGGGGAAAGUAUUAUGUUACGCCGUUCGGAUCUGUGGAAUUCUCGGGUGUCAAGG,-0.307

# Some of these lines once more (sample 3):
Sequence,bound/input enrichment [ratio]
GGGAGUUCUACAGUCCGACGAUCCUGUGUGUAAAAUAUUUAACCAUAAGUCAAGUACAGUGUACUAUGUUUAAUAAAGUUACAUUUAAUGCAUUUAUUGCAUAUAUGAAUAUAUACAUGAAGAGGCUUUAUGUCUUCUGGUAUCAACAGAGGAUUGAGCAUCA,0.202
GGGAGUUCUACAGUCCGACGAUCACCCUCAUCAACAUCCCGUCAUUAAAUGACAGUGACUCAGAAAUAGAAGAUAUUUCAGAAAUAGAGUCAAACCGAUCAUUUUCUCCAGAGGAGAGACGUCAUCAGUAUUCUGAUUAUGAUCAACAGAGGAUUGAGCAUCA,0.124
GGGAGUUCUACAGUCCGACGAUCCCUACAAAUCUCCUUAAUUAUAACAUUCACAGCCACAGAACUAAUCAUAUUUUAUAUCUUCUUCGAAACCACACUUAUCCCCACCUUGGCUAUCAUCACCCGAUGAGGCAACCAGCCAGACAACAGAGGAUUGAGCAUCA,2.25
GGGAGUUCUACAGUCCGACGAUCAUGGAGGUUAAAGUGAAGAUUCCUGAAGAAUUAAAACCAUGGCUUGUUGAGGACUGGGACUUAGUUACCAGGCAGAAGCAGCUGUUUCAACUCCCUGCCAAGAAAAAUGUAGAUGCAAUUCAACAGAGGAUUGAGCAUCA,0.666
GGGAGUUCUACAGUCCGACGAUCAGCACAACCCCAGCAAAGCUAAGAAAUCCUUGUACAAGUGAACAAAACUGCACCAGCCCAUUUAGCUACAAAAAUGUGCUUAGUCUUACUGACAGAGGAGAGUUUUUCAAUGAACUUGUUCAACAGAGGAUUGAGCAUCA,0.576
